Measurements collected from several papers.
Numbered parts are unrelated; each lists some results of a single study. Changes are numbered by the printed parent chain.

Study 1
Target: Fragile X messenger ribonucleoprotein 1, C-terminal low-complexity region (Fmr1, Mus musculus, UniProt P35922)
Method: RNA Bind-n-Seq
Molecule type: RNA
Medium: in vitro
Tested at: 200 nM
Setting: whole 134-nt RNA, ends assumed
With: 150 mM KCl
Relative to: input library
Reading: higher = stronger binding
Constant ends, left off below: GGGAGUUCUACAGUCCGACGAUC … UGGAAUUCUCGGGUGUCAAGG
Sequence | log2 enrichment
CCUCAAGUCCUGUGCUACACAUCGUAUGUACCGAAUCGGGGAGGGAGGGGAGGAAAGUAUUAUGUUACGCCGUUCGGAUCUGCACUUCCA | 0.873
GUCCUGUGCUACACAUCGUAUGUACCGAAUCGGGGCCCCCGGGCCCCCGGGCCCCCGGGAAAGUAUUAUGUUACGCCGUUCGGAUCUGCA | -0.693
GCAGGAAGUAAAAACAAAUGGAAAUGCUUCGGAUAGUGGCAGGGGUGGGGGUUGCUAAGGAAAGGGUUGGAUGGGAGUGGGUAAAGAGUU | 0.195
ACCAUGCAGGUGGGCAUCUUUGGGAAGUGGGGCAAGGGGGGGAUGGGGAGGGGGGUAACACUUUGGGAACAGGUGGUCCCAGGUCGUUUC | 0.837
CUGUGCUACACAUCGUAUGUACCGAAUCGGGGAAAAAAAGGGGAAAGGGGAAAAAAAGGGGAAAGUAUUAUGUUACGCCGUUCGGAUCUG | -0.444
CACAGACAACACGCACCCACACAGACACAGAGGGAAGGGGUUGGGAUGGGGACAGGGUGCACAGCGGGGCGGGGUAGGACCCCAGCCCCU | 1.37
UUUCUAGGCAAGAGGAGGAACGACGUAGAAGAGAGGAAGAGAUGAUGAUUCGUCAACGUGAGAUGGAAGAACAAAUGAGGCGCCAAAGAG | 0.534
CCUGUGCUACACAUCGUAUGUACCGAAUCGGUUUUUUGGGGUUUUUUGGGGUUUUUUGGGGAAAGUAUUAUGUUACGCCGUUCGGAUCUG | -0.638
GCAGGAAGUAAAAACAAAUGGAAAUGCUUCGGAUAGUGGCAGGGGUGGGGGUUGCUAAGGAAAGGGUGGGAUGGGAGUGAAAAAAGAGUU | 0.048
GUCCUGUGCUACACAUCGUAUGUACCGAAUCGGCCCCCGGCCCCCGGGGCCCCCGGGGAAAGUAUUAUGUUACGCCGUUCGGAUCUGCAC | -0.346

Study 2
Target: RNA binding protein fox-1 homolog 2, RRM domain, GST-SBP tag (RBFOX2, Homo sapiens, UniProt O43251-10, residues 100-194)
Method: RNA Bind-n-Seq
Molecule type: RNA
Medium: in vitro
Tested at: 365 nM
Setting: natural RNA segment, single round, ends assumed
Relative to: no-protein control
Reading: higher = stronger binding
Constant ends, left off below: GGGAGUUCUACAGUCCGACGAUC … UGGAAUUCUCGGGUGCCAA
Construct (chain): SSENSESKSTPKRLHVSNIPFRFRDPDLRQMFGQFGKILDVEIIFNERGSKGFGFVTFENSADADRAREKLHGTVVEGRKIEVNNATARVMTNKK
Sequence | RBNS enrichment (R)
UGUUGUUCAGUCAGCAGCCCUAGUCAUGGUUGCCAAUAGUUUUCCCAAGCAAGGCGUCACCGAGGAGGAAGAAAGGGGGUACUCUCAUGUCUGCUUACUCACAAAAACAG | 0.211
GAGUAGUGAAUCUCUCAGCCAAGGAGGGAAAGAAAAGGAAGAACUCUUGACUAUUUAGAUUCUAGUUAAAUAUCUGGAAUCCUAGCAGUCACUACAUUAUCUCAGCAGAG | 0.442
UUUAUUAUAUCUAAGCUCUGUAGCAGGAUUCAUGUCGUUCUUUGACAGUUCUUUCUCUUUCCUGUAUAUGCAAUAACAAGGUUUUAAAAAAAUAAUAAAGAAGUGAGACU | 0.429
CAUGGUAAGACCCUUUUUAAAACAAACUCCAGGCCCUUGGUUGCGGGUCGCUGGGUUAUUGGGGCAGCGCCGUGGUCGUCACUCAGUCGCUCUGCAUGCUCUCUGUCAUA | 8.13
CAGGUCCCCACCUGACCACCUGUGAACUGGCCAUCAUCAGGCUCCCAGUUUCUCCUGUACAAAUCCCUGGCUCCUCGUGGGUCCUCGGGACCCGUACCAUACCUGCAAUG | 0.415
AGGGGCCUGCUGCAUGCUACGCAUUGGGAUGGGUGCCCGACAUAAUACUGAAUCCUCAAGAAGCCUUGUCAAGUUUGUAGGUAUCAUUGACGUUUUGACGAUGAGGAAAG | 9.86
GUAUUGCCUAUUCUUCAAGUACACAAAAACAUUUUGGAGGCCUCAAUUAUGAGUGGCAGAGCUUUCUGUGUAUAAUUUGUCUACAUAAUUUGUCUAAUAAAAAUGUUUUC | 0.945
UCUUUCUUACGAGUUUGCCGUUCUCACUUCUGUGGGCUCCUAUACCUUGAGUGGGAUGAGUCUUAGUGGGAAACAGUGCCGUCCGAGGUGGGAUGCGAUGAGAAGAUGUG | 0.452
GAUAGAGCAGGGCAUGGGUGCUGGCCUCAGUGCUCAGCCUGCUCUUUAAUAAAGGUACCUCUUUUCUAGCCAUGUCGGAAUGAGUGGAGAAGAGGAGGGUGGGACACAGG | 0.403
UUCGUAGUAUUUGAAAGAAUAAAUCAAGUUUUGAUUAUGCUAUAGGUUGAUUUUUGUGUUGAUCCAAAUCAGAAUAGCUAUUGAGUGUUUAAGUCAUGACUUUAUUUUUC | 1.44
UAAAACUUGGUUUAUUCUAAUUUCUGUAUCAUAUCAUCUGAGGUUUACGUGGUAACUAGUCUUAUAACAUGUAUGUAUCUUUUUUUUGUUGUUCAUCUAAAGCUUUUUAA | 1.2
ACUGCUGGGAGCCAUGUUUGUCACCUUAGUAGAAUGCACCAAUGUUCCCUUCUGCAUCUCUGGCCCUGUGGACAGAACACUUAUUGCUAGGUUAUCUAUCGUGUGGCAGG | 1.28

Study 3
Target: CCND2, cyclin fold, Cln2 fusion (human)
Method: yeast growth competition, sequencing
Medium: yeast
Setting: weak parent motif
Relative to: not given
Reading: higher = stronger binding
Parent: MICAL3 docking peptide (human); LQLRRQLSFSEDS; partner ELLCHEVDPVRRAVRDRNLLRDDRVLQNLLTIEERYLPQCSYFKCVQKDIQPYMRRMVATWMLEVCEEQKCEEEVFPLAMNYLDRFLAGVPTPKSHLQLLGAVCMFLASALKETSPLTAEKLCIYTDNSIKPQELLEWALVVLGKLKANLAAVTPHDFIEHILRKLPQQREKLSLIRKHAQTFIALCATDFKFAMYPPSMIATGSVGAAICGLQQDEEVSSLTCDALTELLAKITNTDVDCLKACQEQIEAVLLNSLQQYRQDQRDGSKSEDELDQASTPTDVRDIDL
Change | normalised enrichment score
R4P | 0.0139
R5E | -0.0147
L3G | 0.371
D12L | 0.391
L7V | 0.415
Q6T | 0.226
Q2G | 0.0522
E11I | -0.44
Q6S | 0.429
Q2V | 0.439
F9R | 0.13
R5G | -0.0577
E11A | 0.228
E11K | 0.375
E11Q | 0.276
R5K | 0.107
L3Y | 0.06
Q2W | -0.118
D12T | 0.194

Study 4
Target: FOSB, bZIP domain (human)
Method: DHFR protein complementation
Medium: yeast
Setting: single substitutions, most at no-binding floor
Relative to: wild-type JUN-FOS pair
Reading: higher = stronger binding
Parent: JUN, bZIP domain (human); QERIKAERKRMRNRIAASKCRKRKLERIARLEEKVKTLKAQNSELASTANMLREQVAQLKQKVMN; partner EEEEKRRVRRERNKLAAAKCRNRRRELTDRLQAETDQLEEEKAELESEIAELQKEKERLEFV
Change | binding fitness [natural log]
M51L | -0.00048
L59S | -1.15
A49G | -0.907
E44F | -0.137
V56R | -1.14
Q55M | -0.256
Q41R | -0.0808
A29K | -0.303
T48Q | -0.0183
T48W | -0.258
A29R | -0.118
E33V | -0.336
E33C | -0.275
S43N | -0.0497
L45F | -0.976
E54W | -0.422

Study 5
Target: ABI1, truncated, D143A, DHFR fusion (Arabidopsis thaliana)
Method: DHFR PCA, deep sequencing
Medium: yeast
Setting: methotrexate growth selection, single substitutions
With: (+)-ABA 58 µM
Relative to: wild-type fitted maximum
Reading: higher = stronger binding
Parent: PYL1, truncated, DHFR fusion (Arabidopsis thaliana); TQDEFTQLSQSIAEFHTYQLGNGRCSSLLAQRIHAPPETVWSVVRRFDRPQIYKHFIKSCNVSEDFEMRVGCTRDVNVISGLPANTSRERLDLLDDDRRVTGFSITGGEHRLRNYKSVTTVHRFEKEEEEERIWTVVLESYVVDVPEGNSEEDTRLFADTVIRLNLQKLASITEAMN; partner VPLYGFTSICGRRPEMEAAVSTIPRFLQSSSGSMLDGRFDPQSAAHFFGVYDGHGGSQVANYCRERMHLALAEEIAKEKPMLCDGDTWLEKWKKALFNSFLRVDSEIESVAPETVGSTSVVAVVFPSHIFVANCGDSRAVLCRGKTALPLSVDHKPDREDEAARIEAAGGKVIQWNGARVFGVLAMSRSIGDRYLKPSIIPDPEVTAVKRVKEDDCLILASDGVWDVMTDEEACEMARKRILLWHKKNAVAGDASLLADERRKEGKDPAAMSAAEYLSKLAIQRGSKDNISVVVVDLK
Change | relative binding score [%]
P50C | 27.1
H110A | 20.4
T1D | 82.1
N114W | -1.87
S104D | -1.02
L8N | 58.4
S27N | 99.6
S63M | 77.1
D95H | 39.1
F103P | -12.7
V44G | -12.1
D96L | 5.55
E151C | 81.3
T17R | 74.8

For quick reference, copied from above (study 5):
Change | relative binding score [%]
L8N | 58.4
T17R | 74.8
V44G | -12.1
D96L | 5.55
T1D | 82.1
P50C | 27.1
